Assay results gathered from unrelated publications.
A part holds a random share of what one study measured. Substitutions count along the parent as printed.

Block 1
Target: RNA binding protein fox-1 homolog 2, RRM domain, GST-SBP tag (RBFOX2, Homo sapiens, UniProt O43251-10, residues 100-194)
Method: RNA Bind-n-Seq
Form: RNA
Sample: in vitro
Concentration: 365 nM
Setting: natural RNA segment, single round, ends assumed
Relative to: no-protein control
Direction: higher = stronger binding
Construct (chain): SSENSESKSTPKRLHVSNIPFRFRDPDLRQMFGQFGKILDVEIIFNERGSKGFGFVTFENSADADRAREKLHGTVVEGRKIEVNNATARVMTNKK
| Strand | RBNS enrichment (R) |
| --- | --- |
| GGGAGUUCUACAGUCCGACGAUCAGGCCUUUGGCUUUUGACCCAGGAGGGCCGCGAGGCUGGAGCUGCCCUGUCUUUCAUUGAGCCUUAGCAUUUCCCUCUCAGGCUUCCUCUCAAGCUCAAGGAACUCACCCUGGAAUUCUCGGGUGCCAA | 0.391 |
| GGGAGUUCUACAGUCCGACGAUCACAAUGACGCAUUUUAAUCUACCUUUGUCUUAAUUUACAGCAGGUUUUGUAUGAAUUUUUAACCUUUUAACAAACUCCCAAAUCUGGUUGAUGCCUUUGACAGUGAUGAAUGGAAUUCUCGGGUGCCAA | 1 |
| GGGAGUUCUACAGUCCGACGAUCGAUGCCUGCCAGGAAUGAGCAAGCUCUGUUGCUCGGGAGCCUCUUGUCACCUUCUUGGACUUAUUCCCCACCUGAUACCUUAUAGAGAAAAGUGUGAAUUCAGGUGGAGAUGGAAUUCUCGGGUGCCAA | 0.586 |
| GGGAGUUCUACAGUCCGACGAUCUCCCGGGGCAUGGUAAGCCUGAGUUUGCCCUAACACCUCACUUAUCAGCUCUAUUACGACCCUUCUCAUCCCUAUAGAAGAGGUUGCUAAGUAUCCACUUCCCUUUCUAUUGGAAUUCUCGGGUGCCAA | 0.399 |
| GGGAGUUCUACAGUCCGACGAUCGAGGUCAGGUCUUGCCCUAAGCUCAAAACAAGUGAGAGGUGUCCUGACCUAGCUCAUAGGGCAAAUGGUCCUAAUAGGAUGGGCAAUCCAGAUGCCUGAGCCCCUUCACUUGGAAUUCUCGGGUGCCAA | 0.174 |
| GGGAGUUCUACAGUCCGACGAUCCUCUAACAGCAAAAUAAUUAAAGUGCCAUAGUUUCUCAAGUGACUAAAGUAGUUAUUAAAAUCAAGCACUUGAUACUAAUUUGAAGUGUGUUUAAAAGUAAAUGAUUUGGUGGAAUUCUCGGGUGCCAA | 0.597 |
| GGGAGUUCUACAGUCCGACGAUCCUUUCAGUGACCACCACCUCCCUAUGCAGAAGGGAUGUCAAUGUCAACAGCAGGGACUGAGACCUUUCUCUGUGCCACUCUCCUCACUGGGGCUCUGCCAUGUUACACUAUGGAAUUCUCGGGUGCCAA | 0.574 |
| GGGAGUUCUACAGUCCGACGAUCGAGUCUAGGAUUCCUUGCCCACUGGCCUUUUGGAAAUGAAGCACCACUGGCCUGAAUAAUUAGCCUUUUCCAGAUCUUCAGUAUCUUCCACAACUACUGCCAUACCCUGUUGGAAUUCUCGGGUGCCAA | 1.62 |

Block 2
Target: ABI1, truncated, D143A, DHFR fusion (Arabidopsis thaliana, UniProt P49597)
Method: DHFR PCA, dose-response
Sample: yeast
Setting: Hill fit, not affinity
With: (+)-ABA, dose series
Direction: lower = more sensitive
Starting sequence: PYL1, truncated, DHFR fusion (Arabidopsis thaliana, UniProt Q8VZS8); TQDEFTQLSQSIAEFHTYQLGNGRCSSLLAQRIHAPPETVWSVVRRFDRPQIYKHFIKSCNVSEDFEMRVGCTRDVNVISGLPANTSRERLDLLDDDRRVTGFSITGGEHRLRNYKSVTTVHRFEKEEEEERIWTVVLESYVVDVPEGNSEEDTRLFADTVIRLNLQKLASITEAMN
| Substitution | ABA EC50 [µM] |
| --- | --- |
| L28I | 20 |
| T154P | 1830 |
| S104D | 1900 |
| V100N | 1220 |
| E131N | 2.75 |
| T173C | 2.4 |
| N85H | 29.8 |
| D92G | 276 |
| N85T | 2.25 |

Block 3
Target: FOSL2, bZIP domain (human)
Method: DHFR protein complementation
Sample: yeast
Setting: single substitutions, most at no-binding floor
Relative to: wild-type JUN-FOS pair
Direction: higher = stronger binding
Starting sequence: JUN, bZIP domain (human); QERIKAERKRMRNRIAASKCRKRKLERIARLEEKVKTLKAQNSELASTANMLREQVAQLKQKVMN; partner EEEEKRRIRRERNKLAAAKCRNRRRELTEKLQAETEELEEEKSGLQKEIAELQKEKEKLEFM
| Substitution | binding fitness |
| --- | --- |
| S47C | 0.113 natural log |
| A57W | -0.0814 natural log |
| R30T | 0.224 natural log |
| V35W | -0.358 natural log |
| S47V | 0.16 natural log |
| V35R | -0.116 natural log |
| K36R | 0.135 natural log |
| R30Q | 0.157 natural log |
| L31K | -0.621 natural log |
| R30H | 0.151 natural log |
| M51D | 0.07 natural log |
| L45C | -1.07 natural log |
| E44A | 0.0346 natural log |
| K36H | 0.00905 natural log |
| R53Q | -0.398 natural log |
| A49N | -0.545 natural log |
| T48K | 0.0709 natural log |
| R30F | 0.0939 natural log |
| K36F | -0.108 natural log |

Block 4
Target: CCNB2, cyclin fold, Cln2 fusion (human)
Method: yeast growth competition, sequencing
Sample: yeast
Setting: weak parent motif
Relative to: not given
Direction: higher = stronger binding
Starting sequence: CDC6 docking peptide (human); TLKGRRLVFDNQL; partner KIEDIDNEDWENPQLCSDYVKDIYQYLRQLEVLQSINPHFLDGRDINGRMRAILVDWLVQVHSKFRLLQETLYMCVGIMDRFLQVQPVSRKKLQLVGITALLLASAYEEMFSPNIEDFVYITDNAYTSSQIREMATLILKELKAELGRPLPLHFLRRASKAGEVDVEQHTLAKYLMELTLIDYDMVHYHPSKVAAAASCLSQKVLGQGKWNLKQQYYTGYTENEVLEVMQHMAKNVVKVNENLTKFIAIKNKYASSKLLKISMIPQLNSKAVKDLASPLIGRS
| Substitution | normalised enrichment score |
| --- | --- |
| YLKGRRLVFDNQL [T1Y] | 0.21 |
| TLKGRILVFDNQL [R6I] | -0.223 |
| TLKGLRLVFDNQL [R5L] | 0.419 |
| TLKGPRLVFDNQL [R5P] | -0.691 |
| TLKGRRLVFDIQL [N11I] | -0.251 |
| TLKGRRLWFDNQL [V8W] | 0.106 |
| SLKGRRLVFDNQL [T1S] | 0.364 |
| TLFGRRLVFDNQL [K3F] | -0.164 |
| TTKGRRLVFDNQL [L2T] | -0.157 |
| TLKSRRLVFDNQL [G4S] | -0.258 |
| TLKGKRLVFDNQL [R5K] | -0.0304 |
| TLKGRRLVFDNKL [Q12K] | 0.199 |
| FLKGRRLVFDNQL [T1F] | -0.556 |
| TLKGRRLVFDPQL [N11P] | 0.462 |
| TNKGRRLVFDNQL [L2N] | -0.0854 |
| TLKGRSLVFDNQL [R6S] | -0.488 |
| TLKGRRNVFDNQL [L7N] | 0.364 |
| TLKGARLVFDNQL [R5A] | 0.12 |
| TLKLRRLVFDNQL [G4L] | 0.243 |
| TLKGRFLVFDNQL [R6F] | -0.585 |
| TYKGRRLVFDNQL [L2Y] | 0.22 |
| TLKGRRLVFRNQL [D10R] | 0.806 |
| TLKKRRLVFDNQL [G4K] | -0.129 |
| TLKGRRLLFDNQL [V8L] | 0.646 |
| TLKGRRLVFNNQL [D10N] | 0.848 |

Block 5
Target: Histone acetyltransferase KAT6A, winged helix 1, GST fusion (KAT6A, Homo sapiens, UniProt Q92794, residues 1-85)
Method: protein binding microarray
Form: double-stranded DNA, one strand shown
Sample: in vitro
Concentration: not given
Setting: 8-mer, flanks averaged, mean of 2 arrays, mostly near background
Relative to: not given
Direction: higher = stronger binding
Construct (chain): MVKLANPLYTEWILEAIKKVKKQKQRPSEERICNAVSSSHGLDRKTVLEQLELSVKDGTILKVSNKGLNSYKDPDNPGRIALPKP
| Strand | E-score |
| --- | --- |
| CCCCCTAG | -0.248 |
| CAGCTGAC | -0.0114 |
| AGCTATTA | -0.115 |
| CTTGCGTA | 0.0691 |
| CGGGAGTC | 0.195 |
| ACATGGTC | -0.194 |
| AATATTGG | -0.171 |
| AGGTCTAA | -0.235 |
| ATCGTTGG | -0.232 |
| TTATTAAA | -0.0027 |
| ACCATGCG | 0.211 |
| ATTATCTC | -0.0672 |
| ATCGTCGG | 0.157 |
| GACGAAGC | -0.0993 |
| GGCGACTA | 0.0969 |
| ATTATGCG | 0.0843 |
| ATACGCTA | 0.208 |
| ATGCTTCC | -0.22 |
| GGAAATAC | -0.066 |

Other studies, line by line
| Molecule | target | test | test system | conditions | scale | quantity | result |
| --- | --- | --- | --- | --- | --- | --- | --- |
| PhoQ, residues 284 288 289 292 302 303 AANNSF | PhoP, residues 12 14 15 18 19 GQAIL (Escherichia coli, UniProt P23836) | Sort-seq, item: YFP reporter | E. coli | PhoQ-PhoP variant library, with: 10 µM Mg2+ | relative to: high Mg2+ state, higher = stronger signaling | fold induction | 3.94 |

Repeated from above (block 2):
| Substitution | ABA EC50 [µM] |
| --- | --- |
| L28I | 20 |
| T154P | 1830 |
| S104D | 1900 |
| V100N | 1220 |
| E131N | 2.75 |
| T173C | 2.4 |
| N85H | 29.8 |
| D92G | 276 |
| N85T | 2.25 |
